# Measurements collected from several papers.
# A part holds a random share of what one study measured. Positions count from the first letter of the parent shown.

# Block 1
# Target: CCND1, cyclin fold, Cln2 fusion (human)
# Method: yeast growth competition, sequencing
# Matrix: yeast
# Notes: weak parent motif
# Baseline: not given
# Reading: higher = stronger binding
# Starting sequence: viral docking peptide; PGASRRLFGSSAD
Change,normalised enrichment score
AGASRRLFGSSAD [P1A],-0.191
PAASRRLFGSSAD [G2A],0.337
PGAARRLFGSSAD [S4A],0.858
PGASRRLLGSSAD [F8L],0.088
PGASRRLAGSSAD [F8A],-0.308
PGASARAFGSSAD [R5A L7A],0.198
PGASRRLFGASAD [S10A],-0.296

# Block 2
# Target: POU, POU domain (Salpingoeca helianthica)
# Method: Spec-seq
# Molecule type: double-stranded DNA, one strand shown
# Matrix: in vitro
# Concentration: not given
# Notes: whole probe, mean of replicates
# Baseline: not given
# Reading: lower = stronger binding
# Shared flanks, not repeated: GAGTCGTCTCGTCAGCACAT … CCGTAGAGCACTCAGGTC
# Residues (chain): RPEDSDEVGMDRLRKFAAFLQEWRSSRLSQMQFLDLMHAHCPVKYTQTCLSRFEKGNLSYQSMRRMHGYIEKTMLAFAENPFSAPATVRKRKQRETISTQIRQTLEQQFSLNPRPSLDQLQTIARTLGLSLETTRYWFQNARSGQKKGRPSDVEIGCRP
Strand,relative binding energy [ln ratio]
CCTGAT,1.25
AGAGAT,1.17
GGGAAT,1.44
GCGTGG,1.37
GCTCCA,1.34
CAGGAT,1.17
CACGAT,1.2
TGATAT,0.677

# Block 3
# Change: D97Y
# Target: ABI1, truncated, D143A, DHFR fusion (Arabidopsis thaliana)
# Method: DHFR PCA, deep sequencing
# Matrix: yeast
# Notes: methotrexate growth selection, single substitutions
# Baseline: wild-type fitted maximum
# Reading: higher = stronger binding
# Starting sequence: PYL1, truncated, DHFR fusion (Arabidopsis thaliana); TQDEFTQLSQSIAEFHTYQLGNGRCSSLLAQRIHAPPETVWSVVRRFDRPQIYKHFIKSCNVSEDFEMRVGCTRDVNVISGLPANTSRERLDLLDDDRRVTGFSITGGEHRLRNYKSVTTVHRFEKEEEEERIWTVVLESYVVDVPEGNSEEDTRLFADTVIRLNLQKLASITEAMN; partner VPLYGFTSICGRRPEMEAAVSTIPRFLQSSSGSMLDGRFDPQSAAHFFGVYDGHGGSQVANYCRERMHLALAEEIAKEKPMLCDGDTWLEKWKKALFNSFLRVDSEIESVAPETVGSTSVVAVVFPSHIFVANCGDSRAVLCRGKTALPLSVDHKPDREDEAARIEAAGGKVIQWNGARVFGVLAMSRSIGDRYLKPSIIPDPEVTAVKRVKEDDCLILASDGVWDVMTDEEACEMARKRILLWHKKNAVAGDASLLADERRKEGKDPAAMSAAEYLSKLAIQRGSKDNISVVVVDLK
setting,relative binding score
together with: (+)-ABA 0.11 µM,8.98%
together with: (+)-ABA 1.4 µM,30.7%
together with: (+)-ABA 200 µM,84.4%
together with: (+)-ABA 17 µM,67.1%
together with: (+)-ABA 2500 µM,92%
together with: (+)-ABA 4.8 µM,49.1%

# Block 4
# Target: UDP-N-acetylglucosamine--peptide N-acetylglucosaminyltransferase 110 kDa subunit (OGT, Homo sapiens, UniProt O15294)
# Effect on: binding
# Method: phage display NGS
# Molecule type: peptide
# Concentration: concentration not given
# Baseline: input library
# Residues (O15294 1-1046): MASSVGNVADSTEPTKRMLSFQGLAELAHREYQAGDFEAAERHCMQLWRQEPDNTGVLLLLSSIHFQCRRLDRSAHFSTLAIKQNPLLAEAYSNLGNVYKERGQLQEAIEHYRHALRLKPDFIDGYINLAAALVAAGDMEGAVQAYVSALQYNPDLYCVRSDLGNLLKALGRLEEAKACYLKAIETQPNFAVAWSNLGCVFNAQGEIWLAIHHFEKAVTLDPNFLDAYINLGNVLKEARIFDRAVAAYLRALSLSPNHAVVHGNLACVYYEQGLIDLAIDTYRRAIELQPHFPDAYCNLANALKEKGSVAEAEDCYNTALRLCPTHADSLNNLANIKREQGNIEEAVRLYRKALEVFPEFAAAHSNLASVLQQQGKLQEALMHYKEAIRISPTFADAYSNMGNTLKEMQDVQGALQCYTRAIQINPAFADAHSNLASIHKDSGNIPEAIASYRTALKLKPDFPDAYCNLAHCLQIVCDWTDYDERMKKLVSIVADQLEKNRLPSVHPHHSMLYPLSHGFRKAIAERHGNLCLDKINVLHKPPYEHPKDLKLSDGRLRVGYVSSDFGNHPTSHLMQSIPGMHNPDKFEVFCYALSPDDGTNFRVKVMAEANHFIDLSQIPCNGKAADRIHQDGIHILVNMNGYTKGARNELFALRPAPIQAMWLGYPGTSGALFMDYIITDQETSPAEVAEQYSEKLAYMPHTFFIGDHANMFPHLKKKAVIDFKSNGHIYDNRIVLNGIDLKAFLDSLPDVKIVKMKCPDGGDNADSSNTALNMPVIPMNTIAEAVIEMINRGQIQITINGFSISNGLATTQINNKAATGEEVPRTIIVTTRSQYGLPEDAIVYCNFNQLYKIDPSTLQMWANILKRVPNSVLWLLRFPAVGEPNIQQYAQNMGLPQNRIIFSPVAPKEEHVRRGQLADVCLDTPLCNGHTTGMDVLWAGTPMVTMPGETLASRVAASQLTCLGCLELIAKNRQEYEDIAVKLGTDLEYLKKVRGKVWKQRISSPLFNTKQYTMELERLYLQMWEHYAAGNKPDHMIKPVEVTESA
Sequence,enrichment fold change
HNHHSHASQMPKFDV,3.04
TIIHHTSTANRQHAS,7.32
DNVYPMYQMTYKAID,2.28
NAKFFPKYQIGMTP,3.94
DHHYHPHTWTWFTAP,3.82
HHPAHRTPMFATTF,2.04
HGIYWRGLADHGLD,5.03
HQHRDMRTHPSHGAI,9.63
TQGMHPQRPHHVGY,4.41
HTAWQPWINGHDHHH,9.16
RPITSAYQPSYQIVL,2.08
QQFSKLFPPKYTIDF,2.95
RVQHTFQHETGKHHH,6.05
HFQEHTSHWHVYSTV,5.55
HKPMLHHRWRDIDNL,9.21
ATRYDMHHPHLHPSN,3.84
HWHPLHQQMPHDMGS,13
HQRHGQHQQVFFHID,9.37
TVQHQRYYMHWKPHH,6.85
YTPIQHHISHTHHAE,5.79
GVQDYLPMYQISMSN,2.44
QWKPRHDHIHYYEYH,8

# Block 5
# Target: Ras GTPase-activating protein-binding protein 1, RRM domain (G3BP1, Homo sapiens, UniProt Q13283)
# Sequence of UniProt Q13283 (whole entry, looked up): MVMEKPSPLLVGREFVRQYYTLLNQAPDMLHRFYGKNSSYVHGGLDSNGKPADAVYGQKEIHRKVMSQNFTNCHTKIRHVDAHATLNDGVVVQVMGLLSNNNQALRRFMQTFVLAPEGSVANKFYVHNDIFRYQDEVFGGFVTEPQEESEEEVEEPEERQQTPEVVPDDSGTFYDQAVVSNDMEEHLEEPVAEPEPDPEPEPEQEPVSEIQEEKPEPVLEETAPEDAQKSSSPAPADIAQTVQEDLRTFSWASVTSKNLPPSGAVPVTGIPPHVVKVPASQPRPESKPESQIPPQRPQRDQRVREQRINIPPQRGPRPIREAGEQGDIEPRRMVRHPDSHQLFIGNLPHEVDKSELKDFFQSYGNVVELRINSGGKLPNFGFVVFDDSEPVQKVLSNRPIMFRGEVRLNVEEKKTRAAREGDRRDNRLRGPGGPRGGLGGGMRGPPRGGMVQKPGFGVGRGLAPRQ
# Method: RNA Bind-n-Seq
# Molecule type: RNA
# Matrix: in vitro
# Concentration: 1 µM
# Notes: whole 134-nt RNA, ends assumed
# Together with: 150 mM KCl
# Baseline: input library
# Reading: higher = stronger binding
Strand,log2 enrichment
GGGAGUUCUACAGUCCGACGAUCUCAAGUCCUGUGCUACACAUCGUAUGUACCGAAUCGGGGCCCGGCCCGGCCCGGAAAGUAUUAUGUUACGCCGUUCGGAUCUGCACUUCCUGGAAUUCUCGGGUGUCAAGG,-0.996
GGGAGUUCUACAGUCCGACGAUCCAAGUCCUGUGCUACACAUCGUAUGUACCGAAUCGGUUUGGAAAAAGGAAAAAGGAAAGUAUUAUGUUACGCCGUUCGGAUCUGCACUUCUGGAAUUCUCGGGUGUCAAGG,-0.201
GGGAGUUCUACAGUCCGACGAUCUCCUGUGCUACACAUCGUAUGUACCGAAUCGGGAAAAAGGGAAAAAGGGGAAAAAGGGGAAAGUAUUAUGUUACGCCGUUCGGAUCUGCAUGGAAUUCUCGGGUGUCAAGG,0.0356
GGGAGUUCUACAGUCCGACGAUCGCAGGAAGUAAAAACAAAUGGAAAUGCUUCGGAUAGUGGCAGGCGUGGGGGUUGCUAAGGAAAGGGUGGGAUGGGAGUGGGUAAAGAGUUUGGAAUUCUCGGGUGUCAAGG,1.3
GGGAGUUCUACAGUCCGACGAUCGCUUUGCCUUCACUUAUUUCUUUGCUUUUUAAAAACUAUUUGUAAUGUAAUUUUAAUGCAUUUUUUACAGGCCCAGUAAUGGUUAAAUACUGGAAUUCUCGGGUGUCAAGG,-0.324
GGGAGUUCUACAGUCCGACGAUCCACAGACAACACGCACCCACACAGACACAGAGGGGAGGGGUUGGGAUGGGGACAGGGUGCACAGCAGGGCGGGGUAGGACCCCAGCCCCUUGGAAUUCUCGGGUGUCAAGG,0.136
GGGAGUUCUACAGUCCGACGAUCUGGCCCUGGUGGCAUGCGGGGAGGAAGAGGUGGCCUCAUGGAUCGUGGUGGUCCCGGUGGAAUGUGCAGAGGUGGCCGUGGUGGAGACAGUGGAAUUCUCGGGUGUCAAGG,1.77
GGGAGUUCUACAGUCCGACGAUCGCAGGAAGUAAAAACAAAUGGAAAUGCUUCGGAUAGUGGCAGGGGUGGGGGUUGCUAAGGAAGGGGUGGGAUGGGAGUGGGUAAAGAGUUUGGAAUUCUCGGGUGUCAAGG,1.25

# Repeated from above (block 3):
setting,relative binding score
together with: (+)-ABA 17 µM,67.1%
together with: (+)-ABA 0.11 µM,8.98%
together with: (+)-ABA 1.4 µM,30.7%
together with: (+)-ABA 200 µM,84.4%
together with: (+)-ABA 2500 µM,92%
together with: (+)-ABA 4.8 µM,49.1%
